Measured values from different studies.
Compare with care: the assays were run in different laboratories. ± marks the error that the study gave.
rep main protease: Replicase polyprotein 1ab, main protease (rep, Severe acute respiratory syndrome coronavirus 2, UniProt P0DTD1)

SMILES | target or system | test | system | setting | endpoint | result
C[C@@]1(c2cc(-c3cncnc3)c(F)cc2F)CCSC(N)=N1 | rep main protease | reporter gene (Gaussia luciferase), inhibitor |  | 20 µM | inhibition | 2.09%
CCC(CC)COC(=O)[C@H](C)N[P@](=O)(OC[C@H]1O[C@@](C#N)(c2ccc3c(N)ncnn23)[C@H](O)[C@@H]1O)Oc1ccccc1 | SARS-CoV-2 | viral replication, qRT-PCR of viral RNA | Calu-3, Washington |  | EC90 | 400 ± 100 nM
Cn1cnc(Cn2c(=O)[nH]/c(=N\c3cc4cn(C)nc4cc3Cl)n(Cc3cc(F)c(F)cc3F)c2=O)n1 |  |  | human, severe renal impairment, plasma | oral, 375 mg single dose | Tmax | 2.75 h
CC[C@H](NC(=O)[C@H](CS(=O)(=O)CC1CC1)N[C@@H](c1ccc(F)cc1)C(F)(F)F)C(=O)C(=O)NC1CC1 | SARS-CoV-2 | viral replication | 293T-ACE2, USA-WA1/2020 |  | EC90 | 407 nM
O=c1nc[nH]c2c1ncn2[C@H]1CC[C@@H](CO)O1 | SARS-CoV-2 | infectious virus yield | Vero C1008, VOC-202012/01 | 48 h, 90% decrease endpoint | EC90 | 17800 ± 690 nM
C[C@@H]1CN(c2ncc(C(O)CO)cc2Cl)CCN1c1nc2c(-c3cc(F)c(F)c(F)c3)cc(C(F)(F)F)cc2[nH]1 (some centres unmarked) | SARS-CoV-2 | viral replication, inhibitor | Vero E6, USA-WA1/2020 | 24 h | EC90 | ~1240 nM
C[C@@]1(O)[C@H](O)[C@@H](CO)O[C@H]1n1cc(F)c2c(N)ncnc21 | SARS-CoV-2 | viral replication | Vero | 48 h | EC90 | 28800 ± 800 nM
N#C[C@@]1(n2ccc(N)nc2=O)O[C@H](CO)[C@@H](O)[C@H]1O | SARS-CoV-2 | viral replication, cell-based | Washington |  | EC90 | 4000 ± 6500 nM
C1=C(c2ccc(CN3CCCCC3)cc2)N2CCN=C2c2ccccc21 | SARS-CoV-2 | viral replication, inhibitor | Vero E6, USA-WA1/2020 | 24 h | EC90 | 1730 nM
Cn1cnc(Cn2c(=O)[nH]/c(=N\c3cc4cn(C)nc4cc3Cl)n(Cc3cc(F)c(F)cc3F)c2=O)n1 | SARS-CoV-2 | viral replication | Omicron BA.1 strain | 24 h | EC90 | 66 ± 12.5 nM
CCC(CC)COC(=O)[C@H](C)N[P@](=O)(OC[C@H]1O[C@@](C#N)(c2ccc3c(N)ncnn23)[C@H](O)[C@@H]1O)Oc1ccccc1 | SARS-CoV-2 | viral replication | VeroE6/TMPRSS2 |  | EC90 | 3300 nM
CC(C)(C)[C@H](NC(=O)C(F)(F)F)C(=O)N1C[C@H]2[C@@H]([C@H]1C(=O)N[C@H](C#N)C[C@@H]1CCNC1=O)C2(C)C | SARS-CoV-2 | viral replication, qRT-PCR of viral RNA | Caco-2, Washington |  | EC90 | 300 ± 60 nM
Nc1ccc2cc3ccc(N)cc3nc2c1 | rep main protease | reporter gene (Gaussia luciferase), inhibitor | HEK293T | 20 µM | inhibition | -5.7%
CC[C@H](C)[C@H](NC(=O)[C@H](CC(C)C)NC(=O)[C@H](Cc1c[nH]c2ccccc12)NC(=O)[C@H](CCC(N)=O)NC(=O)[C@@H](NC(=O)[C@H](Cc1ccccc1)NC(=O)[C@H](C)NC(=O)[C@H](CCCCNC(=O)COCCOCCNC(=O)COCCOCCNC(=O)CC[C@H](NC(=O)CCCCCCCCCCCCCCCCCCC(=O)O)C(=O)O)NC(=O)[C@H](CCC(N)=O)NC(=O)[C@H](C)NC(=O)[C@@H](NC(=O)[C@H](CCCCN)NC(=O)[C@H](CC(=O)O)NC(=O)[C@H](CC(C)C)NC(=O)C(C)(C)NC(=O)[C@@H](NC(=O)[C@H](CO)NC(=O)[C@H](Cc1ccc(O)cc1)NC(=O)[C@H](CC(=O)O)NC(=O)[C@H](CO)NC(=O)[C@@H](NC(=O)[C@H](Cc1ccccc1)NC(=O)[C@@H](NC(=O)CNC(=O)[C@H](CCC(=O)O)NC(=O)C(C)(C)NC(=O)[C@@H](N)Cc1ccc(O)cc1)[C@@H](C)O)[C@@H](C)O)[C@@H](C)CC)[C@@H](C)CC)C(C)C)C(=O)N[C@@H](C)C(=O)NCC(=O)NCC(=O)N1CCC[C@H]1C(=O)N[C@@H](CO)C(=O)N[C@@H](CO)C(=O)NCC(=O)N[C@@H](C)C(=O)N1CCC[C@H]1C(=O)N1CCC[C@H]1C(=O)N1CCC[C@H]1C(=O)N[C@@H](CO)C(N)=O |  |  | patients with type 2 diabetes, serum | 5 mg, day 29, proof of concept | serum ALT | 24.5 ± 14.3 U/L
COc1cc2c(cc1N1C[C@@H](C)N[C@@H](C)C1)N(C(=O)c1ccc(-c3ccc(-c4noc(C)n4)cc3C)cc1)CC2 | SARS-CoV-2 | viral replication | 293T-ACE2, USA-WA1/2020 |  | EC90 | 380 nM
Nc1ncnc2c([C@@H]3N[C@H](CO)[C@@H](O)[C@H]3O)c[nH]c12 | Chikungunya virus | viral replication | HeLa, AF 15561 | 12.5 µM | inhibition | 7.1%
CC(C)(C)[C@H](NC(=O)C(F)(F)F)C(=O)N1C[C@H]2[C@@H]([C@H]1C(=O)N[C@H](C#N)C[C@@H]1CCNC1=O)C2(C)C | SARS-CoV-2 | viral replication | Omicron BA.1 strain | 48 h | EC90 | 69.2 ± 14.1 nM

Excerpt of the above:
SMILES | target or system | test | system | setting | endpoint | result
Nc1ccc2cc3ccc(N)cc3nc2c1 | rep main protease | reporter gene (Gaussia luciferase), inhibitor | HEK293T | 20 µM | inhibition | -5.7%
CC[C@H](C)[C@H](NC(=O)[C@H](CC(C)C)NC(=O)[C@H](Cc1c[nH]c2ccccc12)NC(=O)[C@H](CCC(N)=O)NC(=O)[C@@H](NC(=O)[C@H](Cc1ccccc1)NC(=O)[C@H](C)NC(=O)[C@H](CCCCNC(=O)COCCOCCNC(=O)COCCOCCNC(=O)CC[C@H](NC(=O)CCCCCCCCCCCCCCCCCCC(=O)O)C(=O)O)NC(=O)[C@H](CCC(N)=O)NC(=O)[C@H](C)NC(=O)[C@@H](NC(=O)[C@H](CCCCN)NC(=O)[C@H](CC(=O)O)NC(=O)[C@H](CC(C)C)NC(=O)C(C)(C)NC(=O)[C@@H](NC(=O)[C@H](CO)NC(=O)[C@H](Cc1ccc(O)cc1)NC(=O)[C@H](CC(=O)O)NC(=O)[C@H](CO)NC(=O)[C@@H](NC(=O)[C@H](Cc1ccccc1)NC(=O)[C@@H](NC(=O)CNC(=O)[C@H](CCC(=O)O)NC(=O)C(C)(C)NC(=O)[C@@H](N)Cc1ccc(O)cc1)[C@@H](C)O)[C@@H](C)O)[C@@H](C)CC)[C@@H](C)CC)C(C)C)C(=O)N[C@@H](C)C(=O)NCC(=O)NCC(=O)N1CCC[C@H]1C(=O)N[C@@H](CO)C(=O)N[C@@H](CO)C(=O)NCC(=O)N[C@@H](C)C(=O)N1CCC[C@H]1C(=O)N1CCC[C@H]1C(=O)N1CCC[C@H]1C(=O)N[C@@H](CO)C(N)=O |  |  | patients with type 2 diabetes, serum | 5 mg, day 29, proof of concept | serum ALT | 24.5 ± 14.3 U/L
